Experimental data from different studies.
Numbered parts are unrelated; each lists some results of a single study. Changes are numbered by the printed parent chain.

Block 1
Target: ABI1, truncated, D143A, DHFR fusion (Arabidopsis thaliana)
Technique: DHFR PCA, deep sequencing
Matrix: yeast
Notes: methotrexate growth selection, single substitutions
Added: (+)-ABA 0.11 µM
Baseline: wild-type fitted maximum
Direction: higher = stronger binding
Starting sequence: PYL1, truncated, DHFR fusion (Arabidopsis thaliana); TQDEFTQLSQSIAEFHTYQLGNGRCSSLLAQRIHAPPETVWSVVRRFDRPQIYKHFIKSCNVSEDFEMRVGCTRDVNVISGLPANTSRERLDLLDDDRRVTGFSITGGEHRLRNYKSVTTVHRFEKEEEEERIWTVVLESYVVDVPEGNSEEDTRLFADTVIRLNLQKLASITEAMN
Change | relative binding score [%]
L166W | 1.77
A13H | 21.8
E130F | 17.7
Y141E | -2.27
V145W | -10.6
V121N | -7.07

Block 2
Target: Interferon regulatory factor 5, full length, phosphomimetic (IRF5, Homo sapiens, UniProt Q13568-2, residues 1-514, K96S/S451D/S453D/S456D/S462D)
Technique: protein-binding microarray
Form: double-stranded DNA, one strand shown
Matrix: in vitro
Tested at: 250 nM
Notes: 60-bp whole probe
Added: salmon DNA 0.4 mg/ml
Baseline: random background probes
Direction: higher = stronger binding
Shared flanks, not repeated: GCCTAGCAC … GTCTTGATTCGCTTGACGCTGCTG
Strand | log fluorescence
GACGATTTCGAGTTTCGAGACGTGCTA | 5.38 z-score
GACGGTTTCGGGCTTCGGGACGTGCTA | 4.63 z-score
TCATTTTTTTCTTTTATACTGTGCTAG | 1.82 z-score
CCTGTAATCCCAGCTACTCAGTGCTAG | -0.16 z-score
GAGGGTATCCTTTTCCTGACGTGCTAG | -0.274 z-score
CCACCACCAACACCAGTCATGTGCTAG | -0.102 z-score
TCATCCATGTGTTTAAAACTGTGCTAG | 0.374 z-score
TCAGTTTTCCTTATTGCACTGTGCTAG | 1.63 z-score
GACGATCTCCTTATCCTGACGTGCTAG | -0.175 z-score
TTCGGACTGGACTTTCGGTTAGTGCTA | 9.73 z-score

Block 3
Target: RING finger protein unkempt homolog, zinc fingers 1-6, GST-SBP tag (UNK, Homo sapiens, UniProt Q9C0B0, residues 30-357)
UniProt Q9C0B0, sequence (30-357, looked up): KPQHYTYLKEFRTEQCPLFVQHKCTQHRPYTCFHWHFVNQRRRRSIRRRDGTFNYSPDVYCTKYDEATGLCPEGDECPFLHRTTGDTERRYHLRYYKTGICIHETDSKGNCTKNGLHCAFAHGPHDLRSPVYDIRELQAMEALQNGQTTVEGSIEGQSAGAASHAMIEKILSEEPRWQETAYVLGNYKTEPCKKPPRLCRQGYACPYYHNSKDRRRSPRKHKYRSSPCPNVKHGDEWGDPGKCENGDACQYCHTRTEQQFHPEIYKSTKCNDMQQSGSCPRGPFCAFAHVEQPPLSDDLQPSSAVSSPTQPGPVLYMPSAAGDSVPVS
Technique: RNA Bind-n-Seq
Form: RNA
Matrix: in vitro
Tested at: not given
Notes: RNA with constant flanks, human and mouse sites, ends assumed
Baseline: input RNA pool
Direction: higher = stronger binding
Shared flanks, not repeated: GGGAGUUCUACAGUCCGACGAUC … CAACAGAGGAUUGAGCAUCA
Strand | bound/input enrichment [ratio]
AAAUUCAUAUACAGUCAAAAACCUUGAACAACUUCUUGAUUGUUUGGGUUUUGUUGUUUUGUUUUAAAUUUUUAAUUUUAUGUAGCCCUGGCUGUCCUGGAACUCACUGUAGACCAGGCU | 1.26
AAAAGCAUUAAACACAGCACAGCAGCCCCUAGCCCAGAUCCCUAAGUUCCUAGUGGCAGCAUUUAUCAAUGUAAGAACAAGAAUACUUUCUGUACUGGUAUCAGCUUCGUCCUCAAAGCU | 0.487
GAUCUAAUCCAGGAUGUUGAAUGGGAUUAUUGCCAUCUUACACCAUAUUUUUGUAAAAUGUAGCUUAAUCAUAAUCUCACACUGAAGAUUUUGCAUCACUUUUGCUAUUAUCAUUCUUUU | 0.12
UUGGAAACCAGUGCUAAGAAUGCAACGAAUGUAGAACAGUCUUUCAUGACGAUGGCAGCUGAGAUUAAAAAGCGAAUGGGUCCCGGAGCAACAGCUGGUGGUGCUGAGAAGUCCAAUGUU | 0.194
AAUGCAGUAGAGGCCAUUCAUAGAGCUGUGGAAUUCAAUCCUCAUGUGCCAAAAUACCUACUAGAAAUGAAAAGCUUAAUCCUACCCCCAGAACAUAUCCUGAAGAGAGGAGACAGUGAA | 2.09
GGAGACCCUCAGAGUCAUCCAGUGACCAUGACUUUCAGGAGUAAGCCAACCUGUCAAAUCCAUUCCGUAAAGGCCUCGAUAAAGCUCAUCUCUCUGAGCUCUUACUGUCAGAAAUGCCAA | 0.145
CUUAUUGGACGACGAUAUGAUGACCCUGAAGUACAGAAAGACACUAAGAAUGUUCCUUUUAAAAUUGUCCGUGCCUCCAAUGGUGAUGCUUGGGUUGAGGCUCAUGGAAAACUCUAUUCU | 0.276
CUUUCACUAACCUUACAUCCAGACAAGAAUAAAGAUGAAAAUGCAGAAACUCAAUUUAGACAAUUGGUGGCCAUUUAUGAAGUUUUAAAGGAUGAUGAAAGAAGGCAGAGGUAUGAUGAU | 0.295
UUGUACGCUUUAUCCAAAGAAAUAUAUGUGAUUAGCGCAGAGACCUUCACUGCCCUAUCAGUACUAGGUGUAAUGGUCUAUGGAAUUAAAAAAUAUGGUCCCUUUGUUGCAGACUUUGCU | 0.521
CCUUAAGCUUCUCAGAGCAUUGCCACCACACCCAACUCAGAAUGUGUACUUAAGAAUGCAAAUAGAAUCUUAACCAAACAGUAUCUACAUCAACAUUUUAAUGUGAAACCUAACAGCAAA | 0.429

Mixed results
Molecule | target | test | system | conditions | scale | endpoint | result
PhoQ, residues 284 288 289 292 302 303 TLMATV | PhoP, residues 12 14 15 18 19 MHTVL (Escherichia coli, UniProt P23836) | Sort-seq, measured: YFP reporter | E. coli | PhoQ-PhoP variant library, added: 10 µM Mg2+ | baseline: high Mg2+ state, higher = stronger signaling | fold induction | 1.46

Some of these lines once more (block 1):
Change | relative binding score [%]
E130F | 17.7
Y141E | -2.27
V145W | -10.6
V121N | -7.07
